Values quoted from earlier work that unrelated publications cite.
Protocols differ between the studies behind these lines. ± marks the error that the study gave.

Compound	tested on	test	test system	conditions	endpoint	value
FC(F)(F)C(F)(F)C(F)(F)C(F)(F)C(F)(F)C(F)(F)CCI	CYP3A4	inhibitor		Tox21 screening	IC50	inactive
O=C1NC(=O)C(=Cc2c[nH]c3ccc(OCc4ccccc4)cc23)S1	Mycobacterium tuberculosis		H37Rv		MIC	1.55 µM
Nc1ccn([C@@H]2O[C@H](CO)[C@@H](O)C2(F)F)c(=O)n1	Influenza A virus H1N1				EC50	600 nM
CCCCc1ccc(NC(=O)C2=CCN(C)[C@@H]([C@H](O[C@@H]3O[C@H](CN)[C@@H](O)[C@H]3O)[C@H]3O[C@@H](n4ccc(=O)[nH]c4=O)[C@H](O)[C@@H]3O)C(=O)N2C)cc1	Mycobacterium				MIC	0.2 to 1.56 µg/mL
O=c1ccc2ncc(=O)n3c2n1C[C@H]3CN1CCC(NCc2cc3c(cn2)OCCC3)CC1	Mycobacterium tuberculosis		H37Rv wild type		MIC	0.5 µg/mL
COc1cc(C=C2SC(=O)N(CCC(=O)NNC(=O)c3ccncc3)C2=O)cc(OC)c1OC	Mycobacterium tuberculosis		H37Rv		MIC	1.55 µM
CC[C@H]1OC(=O)[C@H](C)[C@@H](O[C@H]2C[C@@](C)(OC)[C@@H](O)[C@H](C)O2)[C@H](C)[C@@H](O[C@@H]2O[C@H](C)C[C@H](N(C)C)[C@H]2O)[C@](C)(OC)C[C@@H](C)C(=O)[C@H](C)[C@@H](O)[C@]1(C)O	Mycobacterium tuberculosis		H37Ra		MIC	16 µg/mL
CC(=O)[C@H]1CC[C@H]2[C@@H]3CC[C@H]4C[C@@H](O)CC[C@]4(C)[C@H]3CC[C@]12C		protection from pentylenetetrazol seizures	mouse NIH Swiss male	intraperitoneal, 15 min pretreatment	ED50	> 100 mg/kg
CCCCCOc1ccc(-c2ccc(-c3ccc(C(=O)N[C@H]4C[C@@H](O)[C@@H](O)NC(=O)[C@@H]5[C@@H](O)[C@@H](C)CN5C(=O)[C@H]([C@@H](C)O)NC(=O)[C@H]([C@H](O)[C@@H](O)c5ccc(O)cc5)NC(=O)[C@@H]5C[C@@H](O)CN5C(=O)[C@H]([C@@H](C)O)NC4=O)cc3)cc2)cc1			human, haematological patients	dose not given, typical value	peripheral volume of distribution	23.1 L
CC(C)(C)[C@H](NC(=O)C(F)(F)F)C(=O)N1C[C@H]2[C@@H]([C@H]1C(=O)N[C@H](C#N)C[C@@H]1CCNC1=O)C2(C)C	human coronavirus 229E		MRC5	concentration not given	viral cytopathic effect	inhibited
CO[C@@H]1[C@@H](OC(N)=O)[C@@H](O)[C@H](Oc2ccc3c(O)c(NC(=O)c4ccc(O)c(CC=C(C)C)c4)c(=O)oc3c2C)OC1(C)C	Mycobacterium tuberculosis		H37Ra		MIC	1.5 µg/mL
COC(=O)[C@@H]1C[C@H](OC(C)=O)C(=O)[C@H]2[C@@]1(C)CC[C@H]1C(=O)O[C@H](c3ccoc3)C[C@]21C	kappa opioid receptor F214A				Ki	1 ± 0.1 nM

Repeated from above:
Compound	tested on	test	test system	conditions	endpoint	value
CCCCc1ccc(NC(=O)C2=CCN(C)[C@@H]([C@H](O[C@@H]3O[C@H](CN)[C@@H](O)[C@H]3O)[C@H]3O[C@@H](n4ccc(=O)[nH]c4=O)[C@H](O)[C@@H]3O)C(=O)N2C)cc1	Mycobacterium				MIC	0.2 to 1.56 µg/mL
O=c1ccc2ncc(=O)n3c2n1C[C@H]3CN1CCC(NCc2cc3c(cn2)OCCC3)CC1	Mycobacterium tuberculosis		H37Rv wild type		MIC	0.5 µg/mL
